Measurements pooled from the literature.

The IC50 of CNS(=O)(=O)Nc1nccc(Cc2c(C)c3ccc(Oc4ncccc4F)cc3oc2=O)c1F is reported as 657 nM (ZR-75-1; cell viability; 7 days).
Under “log2 fold change”, Cc1ncsc1-c1ccc(C(C)NC(=O)C2CC(O)CN2C(=O)C(NC(=O)CCCCCCCCCCN2CCCC(Nc3ncc(Cl)c(Nc4ccccc4S(=O)(=O)C(C)C)n3)C2)C(C)(C)C)cc1 (centres unmarked) is recorded as -1.48 (22Rv1; RNA-seq, measured: MAST3 mRNA; concentration not given; reference: DMSO).
For C=CC(=O)Nc1cccc(Cn2ncc3cnc(Nc4cnn(CCOC)c4)nc32)c1, “percent of control” read 44% (CSF1R human; binding, KINOMEscan; 100 nM; lower = stronger binding).
COC1CN([C@H]2CC[C@H]([C@@]3(C)Oc4c(Cl)cc(C(=O)NCc5c(SC)cc(C)[nH]c5=O)c(C)c4O3)CC2)C1 — result for “log2 fold change”: 1.59 (RNA-seq, measured: PXDC1 mouse homolog; mouse, HT-1376 xenograft, whole blood; dose not given; reference: vehicle).
CCN(CC)CC(=O)Nc1cccc(-n2cc(-c3ccc4ccc(-c5cn(-c6cccc(NC(=O)CN(CC)CC)c6)nn5)cc4c3)nn2)c1 has a fold regulation of 2.4 (RCC4; PCR angiogenesis array, measured: S1PR1; 5 x IC50, 2 h, normoxia; reference: untreated).
Nc1ncc(-c2cc(-c3cnn(CC(F)(F)F)c3)ncc2F)nc1C(=O)NC1CNCC(F)C1 (centres unmarked) has a remaining binding of 52% (TAOK1; KINOMEscan; 1 µM; reference: DMSO control).
The bacterial load of C=C(NC(=O)c1csc(-c2nc3c(cc2O)-c2nc(cs2)C(=O)NC(C(C)O)C(=O)NC(=C(C)OC)c2nc(cs2)C(=O)NC2c4nc(cs4)C(=O)NC(COC(=O)c4c5c6c(cccc6n4O)COC(=O)C(OC4CC(C)(O)C(N(C)C)C(C)O4)C2OC5)c2nc-3cs2)n1)C(N)=O (centres unmarked) is reported as 5.54 log CFU/g (Streptococcus pneumoniae; -4, immunocompromised mice, lung infection, lung; 16 mg/kg/day three times daily, 24 h post-dose).
CN1CCCNC(=O)c2cccc(c2)C(=O)NCCCN(C)CCCNc2cccc3c2C(=O)c2cccc(c2C3=O)NCCC1 — result for “log2 fold change”: -0.809 (SAS; RNA-Seq, measured: SLC25A46 mRNA; 1 µM, 6 h; reference: untreated cells).

Some of these lines once more:
CN1CCCNC(=O)c2cccc(c2)C(=O)NCCCN(C)CCCNc2cccc3c2C(=O)c2cccc(c2C3=O)NCCC1 — result for “log2 fold change”: -0.809 (SAS; RNA-Seq, measured: SLC25A46 mRNA; 1 µM, 6 h; reference: untreated cells).
